Results collected from several papers.
Parts stem from different laboratories: compare values within a part only. Changes are numbered by the printed parent chain.

Set 1 — method: universal PBM; molecule type: double-stranded DNA, one strand shown; sample: in vitro; concentration: 600 nM; direction: higher = stronger binding
Target: Sal-like protein 4, full length isoform A (SALL4, Homo sapiens, UniProt Q9UJQ4, residues 1-1053)
UniProt Q9UJQ4, sequence (whole entry, looked up): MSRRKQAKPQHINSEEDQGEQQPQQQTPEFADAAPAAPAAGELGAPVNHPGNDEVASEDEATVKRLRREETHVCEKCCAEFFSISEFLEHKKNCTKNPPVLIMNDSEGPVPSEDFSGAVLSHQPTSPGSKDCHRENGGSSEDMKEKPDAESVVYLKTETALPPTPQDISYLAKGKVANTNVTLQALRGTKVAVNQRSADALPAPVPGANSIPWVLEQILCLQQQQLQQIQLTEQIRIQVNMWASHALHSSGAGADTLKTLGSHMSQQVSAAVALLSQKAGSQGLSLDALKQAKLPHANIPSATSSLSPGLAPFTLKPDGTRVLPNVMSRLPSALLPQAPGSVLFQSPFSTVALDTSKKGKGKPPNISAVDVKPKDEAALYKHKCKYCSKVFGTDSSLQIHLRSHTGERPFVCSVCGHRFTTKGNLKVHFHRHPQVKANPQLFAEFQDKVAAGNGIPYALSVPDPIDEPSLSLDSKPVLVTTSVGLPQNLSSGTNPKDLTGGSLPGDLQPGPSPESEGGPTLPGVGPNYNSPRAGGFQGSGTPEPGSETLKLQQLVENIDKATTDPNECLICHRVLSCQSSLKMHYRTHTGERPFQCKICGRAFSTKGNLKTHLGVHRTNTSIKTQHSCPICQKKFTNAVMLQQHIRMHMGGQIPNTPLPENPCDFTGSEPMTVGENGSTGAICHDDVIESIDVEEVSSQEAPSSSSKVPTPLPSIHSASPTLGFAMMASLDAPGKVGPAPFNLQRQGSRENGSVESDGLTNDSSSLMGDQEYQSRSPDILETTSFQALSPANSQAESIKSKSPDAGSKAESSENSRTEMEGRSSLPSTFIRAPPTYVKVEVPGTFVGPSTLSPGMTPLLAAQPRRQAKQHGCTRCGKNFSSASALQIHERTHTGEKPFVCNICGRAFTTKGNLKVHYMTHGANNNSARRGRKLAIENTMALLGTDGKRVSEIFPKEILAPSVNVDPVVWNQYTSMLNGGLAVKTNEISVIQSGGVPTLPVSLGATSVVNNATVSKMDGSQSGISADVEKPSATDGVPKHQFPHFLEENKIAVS
Notes: 8-mer, flanks averaged, mean of replicates
Sequence | E-score
CAATAGCC | 0.0285
ACTGCTAT | 0.0937
ACATGCTA | 0.0471
CACCTGCA | -0.176
CATGCACG | 0.0288
ACCCGCGG | -0.315
GTTGAAAA | 0.218
GCAAGATA | 0.188

Set 2 — method: RNA Bind-n-Seq; molecule type: RNA; sample: in vitro; concentration: not given; reference: input RNA pool; direction: higher = stronger binding
Target: RING finger protein unkempt homolog, zinc fingers 1-6, GST-SBP tag (UNK, Homo sapiens, UniProt Q9C0B0, residues 30-357)
UniProt Q9C0B0, sequence (30-357, looked up): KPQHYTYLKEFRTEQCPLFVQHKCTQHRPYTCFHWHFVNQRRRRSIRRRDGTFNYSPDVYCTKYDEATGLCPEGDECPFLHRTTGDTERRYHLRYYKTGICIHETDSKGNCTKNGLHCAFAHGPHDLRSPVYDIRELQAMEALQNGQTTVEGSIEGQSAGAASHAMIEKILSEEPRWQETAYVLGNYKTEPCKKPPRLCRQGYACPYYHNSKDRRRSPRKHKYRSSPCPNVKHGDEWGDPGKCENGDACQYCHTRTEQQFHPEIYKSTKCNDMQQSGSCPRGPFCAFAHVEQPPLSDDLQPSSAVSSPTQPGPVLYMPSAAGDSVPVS
Notes: RNA with constant flanks, human and mouse sites, ends assumed
All sequences stand within: GGGAGUUCUACAGUCCGACGAUC … CAACAGAGGAUUGAGCAUCA
Sequence | bound/input enrichment [ratio]
GGAGGCUUUCACCCCGUGGGUUUCCAUGUGGUCAACAUCCUCCUGCAUGGCAGCAUCUCCAUCCUCAUGCUGGAUGUCUUCUCAGUACUGUUUGGUGGCCUACAGUACACCGGUAAAGGC | 0.167
GUGACCACAGACUAACCCUUUCUAGGCUUUAACAUUGUAAAUAAUCCUAUAAACAGUUUGAUUUUUUAAGAUGAUUUUUGAUUUGAAGAGACAGGCUUUACAUAAGCCUUCAUUCCUUCA | 3.81
AAUCAAGAAGUAGAAUUUGGCAGAAAUCGAGAGAGGCUUCAGUUUUUCAAGUGGAGCUCAGGAGCUUUUAAGAAUGUGGCAGUCAUCCCGCCUGGAACUGGAAUGGCUCAUCAAGUGAAC | 0.365
GCUAAAGAGUCCAUGGAUAAGAACAAGAUGGGCUUGAAAGGCUAUAAAACCCCUUACACCGAUGUAAAUAUUGUGACCAUUCGAGAGAACACAGAAGGAGAAUACAGUGGAAUUGAGCAU | 0.23
UCCUUUGAAGGGAUUGGUGGCAAUCAAGACAAAGUGGACUGGUGUAACCCUGGGAUGGGAAAUCCCAUGAUUCACAGGCCAAUGUCUGACCCAGGAGUGUUUUCACAGCAUCAAGCAAUG | 0.114
GUAAGAUUCAUCUCCCGGUUAUGCCCUCCUGGAAAGCCCUUCCCAACAUAUUAUGUUGUCCAUAGAGGGAAAAAUGAGCAAAGACAGAUGGCUUAACUCUGGUGUGUGACUAAGAUAUAG | 0.494
ACAAAGCACUUCAUCUAUUUUUACUUGGGUCAAGUUGCAAUCCUCCUCUUCAAGUCGGGCUAGGUGGCCGAGGCGAAGGUGUCCGUGGCGGCGGCAGCGAUGGCAAGCAGGCGGCGUUGC | 0.328
GGUCAUUCAUACAUCACAUUUUAAAUUGGGGACUGUGUGUGCUGGUGUGUGUGUGAGUUCUACGUUUCUACCAUAUGUGAUCAGUUUAAUAGUAACUUUAUUUAUUUAAAAAAAAGAAAC | 4.55

Set 3 — method: protein-binding microarray; molecule type: double-stranded DNA, one strand shown; sample: in vitro; concentration: 2200 nM top; notes: 60-bp whole probe; together with: salmon DNA 0.4 mg/ml; reference: random background probes; direction: higher = stronger binding; all sequences stand within: GCCTAGCAC … GTCTTGATTCGCTTGACGCTGCTG
Target: Interferon regulatory factor 7, full length, phosphomimetic (IRF7, Homo sapiens, UniProt Q92985, residues 1-503, S471D/S472D/S475D/S476D/S477D/S483D/S484D/S487D)
UniProt Q92985, sequence (whole entry, unmodified, looked up): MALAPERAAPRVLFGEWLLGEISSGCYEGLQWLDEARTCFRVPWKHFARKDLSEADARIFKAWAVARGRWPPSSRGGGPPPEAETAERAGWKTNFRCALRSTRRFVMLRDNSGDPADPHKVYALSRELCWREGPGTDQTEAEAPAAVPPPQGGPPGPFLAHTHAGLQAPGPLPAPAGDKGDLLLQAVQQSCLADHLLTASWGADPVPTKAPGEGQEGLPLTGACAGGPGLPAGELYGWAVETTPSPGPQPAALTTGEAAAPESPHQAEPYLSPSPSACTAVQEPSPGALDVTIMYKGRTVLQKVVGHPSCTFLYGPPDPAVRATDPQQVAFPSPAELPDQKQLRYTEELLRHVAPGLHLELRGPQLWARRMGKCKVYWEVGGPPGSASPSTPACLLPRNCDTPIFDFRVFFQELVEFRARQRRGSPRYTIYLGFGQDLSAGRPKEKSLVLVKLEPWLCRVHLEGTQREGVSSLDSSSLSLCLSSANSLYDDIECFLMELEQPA
Sequence | fitted relative affinity [z-score]
ACTAGCTTCCATTTTCTGAAGTGCTAG | 2.03
GACGATATCGGGTTTTGAGACGTGCTA | 0.24
GACGGTTTCGGTTTCGGGACGTGCTAG | 15.2
GAGTCTTCTCCTCTAGGTTCGTGCTAG | 1.17
TTGTGTTTGTCCCTATTTAAGTGCTAG | 2.27
TCAGCTTCCTAATTCTCACTGTGCTAG | 1.73
GACGGTATCCGTTTCGGGACGTGCTAG | 2
GTAGGTTTCCTTCTCCTTTAGTGCTAG | 2.55

Other studies, line by line — parent: viral docking peptide; KGVKRKLFAEDSS
Change | target | assay | test system | conditions | scale | quantity | result
KRVKRKLFAEDSS [G2R] | CCND1, cyclin fold, Cln2 fusion (human) | yeast growth competition, sequencing | yeast | strong parent motif | reference: not given, higher = stronger binding | normalised enrichment score | 1.8

A few entries again (set 3):
Sequence | fitted relative affinity [z-score]
TCAGCTTCCTAATTCTCACTGTGCTAG | 1.73
TTGTGTTTGTCCCTATTTAAGTGCTAG | 2.27
GACGGTTTCGGTTTCGGGACGTGCTAG | 15.2
